Published values from different studies.
Each numbered part is a random draw from the data of one study; scales do not carry over between parts.

Sample 1 — technique: protein binding microarray; molecule type: double-stranded DNA, one strand shown; medium: in vitro; concentration: not given; reference: not given; reading: higher = stronger binding
Target: Histone acetyltransferase KAT6A, both winged helices, GST fusion (KAT6A, Homo sapiens, UniProt Q92794, residues 1-181)
Setting: 8-mer, flanks averaged, mean of 2 arrays, mostly near background
Target sequence (chain): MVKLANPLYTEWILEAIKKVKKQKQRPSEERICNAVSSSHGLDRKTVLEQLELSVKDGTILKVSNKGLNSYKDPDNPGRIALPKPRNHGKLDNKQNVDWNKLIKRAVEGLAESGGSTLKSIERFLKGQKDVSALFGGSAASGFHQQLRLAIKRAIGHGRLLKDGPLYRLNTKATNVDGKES
`AGATTGCA` gave an E-score of -0.0753.
For `ACATGTGC`, the E-score was 0.0421.
`CAAGTCGA` has an E-score of -0.148.

Sample 2 — technique: protein-binding microarray; molecule type: double-stranded DNA, one strand shown; medium: in vitro; concentration: 2200 nM top; setting: 60-bp whole probe; together with: salmon DNA 0.4 mg/ml; reference: random background probes; reading: higher = stronger binding
Target: Interferon regulatory factor 7, full length, phosphomimetic (IRF7, Homo sapiens, UniProt Q92985, residues 1-503, S471D/S472D/S475D/S476D/S477D/S483D/S484D/S487D)
Chain of UniProt Q92985 (whole entry, unmodified, looked up): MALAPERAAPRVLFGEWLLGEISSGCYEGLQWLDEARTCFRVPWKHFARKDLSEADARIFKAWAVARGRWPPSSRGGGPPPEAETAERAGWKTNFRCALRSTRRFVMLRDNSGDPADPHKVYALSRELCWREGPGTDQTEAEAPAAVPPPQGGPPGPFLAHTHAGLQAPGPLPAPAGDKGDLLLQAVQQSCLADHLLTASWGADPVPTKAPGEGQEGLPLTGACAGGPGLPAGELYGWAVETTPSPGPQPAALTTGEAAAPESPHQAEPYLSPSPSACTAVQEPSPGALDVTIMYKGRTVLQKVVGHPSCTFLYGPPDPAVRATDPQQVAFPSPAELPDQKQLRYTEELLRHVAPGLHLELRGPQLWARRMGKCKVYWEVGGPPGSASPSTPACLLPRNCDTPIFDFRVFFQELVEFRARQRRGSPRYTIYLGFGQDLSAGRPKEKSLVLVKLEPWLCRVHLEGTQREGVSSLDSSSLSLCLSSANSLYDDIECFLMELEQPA
Under “fitted relative affinity”, `GCCTAGCACTTTGATTTCAGTTCCGATTAGTGCTAGGTCTTGATTCGCTTGACGCTGCTG` is recorded as 2.66 z-score.
Under “fitted relative affinity”, `GCCTAGCACGACCGTTTCGACTATCGGGACGTGCTAGTCTTGATTCGCTTGACGCTGCTG` is recorded as 2.57 z-score.
`GCCTAGCACTTAGGTATCGACACTGGGTTGGTGCTAGTCTTGATTCGCTTGACGCTGCTG`: “fitted relative affinity” 0.0272 z-score.

Sample 3 — technique: universal PBM; molecule type: double-stranded DNA, one strand shown; medium: in vitro; concentration: not given; reading: higher = stronger binding
Target: Sal-like protein 4, full length isoform B (SALL4, Homo sapiens, UniProt Q9UJQ4-2, residues 1-616)
Setting: 8-mer, flanks averaged, mean of replicates
Target sequence (chain): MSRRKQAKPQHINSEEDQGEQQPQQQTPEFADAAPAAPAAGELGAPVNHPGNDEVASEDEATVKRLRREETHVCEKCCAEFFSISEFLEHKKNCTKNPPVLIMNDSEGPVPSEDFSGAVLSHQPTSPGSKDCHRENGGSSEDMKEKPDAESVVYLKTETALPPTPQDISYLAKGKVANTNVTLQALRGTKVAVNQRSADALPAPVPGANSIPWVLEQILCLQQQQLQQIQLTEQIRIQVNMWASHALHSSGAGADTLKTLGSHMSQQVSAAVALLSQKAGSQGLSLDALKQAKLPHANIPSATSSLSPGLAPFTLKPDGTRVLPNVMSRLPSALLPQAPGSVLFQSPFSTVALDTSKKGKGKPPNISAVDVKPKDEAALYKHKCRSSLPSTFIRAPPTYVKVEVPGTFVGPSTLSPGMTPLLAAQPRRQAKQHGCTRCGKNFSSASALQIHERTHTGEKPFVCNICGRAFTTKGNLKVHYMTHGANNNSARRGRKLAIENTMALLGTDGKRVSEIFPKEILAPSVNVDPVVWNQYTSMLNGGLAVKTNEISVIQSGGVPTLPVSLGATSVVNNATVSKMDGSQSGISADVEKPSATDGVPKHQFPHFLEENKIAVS
The E-score of `ACTTGTAC` is reported as 0.0412.
The E-score of `ACATCGTG` is reported as -0.00353.
The E-score of `CGCGAAGA` is reported as -0.0823.
For `CTTACTAA`, the E-score was 0.109.

Further values, each from its own experiment
`PhoQ, residues 284 288 289 292 302 303 SVTLVV` has a fold induction of 8.66 (PhoP, residues 12 14 15 18 19 SGWQI (Escherichia coli, UniProt P23836); Sort-seq, item: YFP reporter; E. coli; PhoQ-PhoP variant library, together with: 10 µM Mg2+; reference: high Mg2+ state, higher = stronger signaling).

Excerpt of the above (sample 2):
Under “fitted relative affinity”, `GCCTAGCACTTTGATTTCAGTTCCGATTAGTGCTAGGTCTTGATTCGCTTGACGCTGCTG` is recorded as 2.66 z-score.
